Experimental data from different studies.
Lines come from different studies, so protocols differ. Numbers after ± are the reported error.
PDK1: [Pyruvate dehydrogenase (acetyl-transferring)] kinase isozyme 1, mitochondrial (PDK1, Homo sapiens, UniProt Q15118)
Sequence of UniProt Q15118 (whole entry, looked up): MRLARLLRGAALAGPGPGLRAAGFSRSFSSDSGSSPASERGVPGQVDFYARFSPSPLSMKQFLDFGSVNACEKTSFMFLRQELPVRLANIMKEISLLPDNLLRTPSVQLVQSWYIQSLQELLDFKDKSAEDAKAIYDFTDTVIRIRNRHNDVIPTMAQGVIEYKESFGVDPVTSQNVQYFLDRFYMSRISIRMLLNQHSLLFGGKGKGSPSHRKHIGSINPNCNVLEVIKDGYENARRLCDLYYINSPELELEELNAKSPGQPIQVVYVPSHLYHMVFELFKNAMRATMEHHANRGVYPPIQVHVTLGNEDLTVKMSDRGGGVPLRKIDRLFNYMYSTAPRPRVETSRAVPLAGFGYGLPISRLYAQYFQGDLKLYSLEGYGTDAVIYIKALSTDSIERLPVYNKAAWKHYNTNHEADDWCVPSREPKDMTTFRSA
hdac10: Polyamine deacetylase HDAC10 (hdac10, Danio rerio, UniProt F1QCV2)
Sequence of UniProt F1QCV2 (whole entry, looked up): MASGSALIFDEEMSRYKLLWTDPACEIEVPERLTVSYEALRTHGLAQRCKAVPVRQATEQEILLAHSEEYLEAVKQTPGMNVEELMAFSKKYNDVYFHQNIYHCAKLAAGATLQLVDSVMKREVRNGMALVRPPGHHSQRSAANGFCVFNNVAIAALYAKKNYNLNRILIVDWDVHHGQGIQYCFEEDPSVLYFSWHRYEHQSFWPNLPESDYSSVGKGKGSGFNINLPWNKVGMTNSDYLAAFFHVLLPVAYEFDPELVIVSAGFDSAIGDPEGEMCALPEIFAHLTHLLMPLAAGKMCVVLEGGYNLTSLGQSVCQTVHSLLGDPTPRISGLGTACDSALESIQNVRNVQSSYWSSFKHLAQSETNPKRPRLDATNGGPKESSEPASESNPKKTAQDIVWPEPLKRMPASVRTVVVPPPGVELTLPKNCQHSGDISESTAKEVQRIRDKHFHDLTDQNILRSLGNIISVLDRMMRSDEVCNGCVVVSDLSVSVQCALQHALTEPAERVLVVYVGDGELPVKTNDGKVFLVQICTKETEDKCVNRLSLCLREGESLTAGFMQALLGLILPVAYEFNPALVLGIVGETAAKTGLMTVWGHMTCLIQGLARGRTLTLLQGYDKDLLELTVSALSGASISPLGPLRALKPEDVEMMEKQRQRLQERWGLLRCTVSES
ELANE: Neutrophil elastase (ELANE, Homo sapiens, UniProt P08246)
Sequence of UniProt P08246 (whole entry, looked up): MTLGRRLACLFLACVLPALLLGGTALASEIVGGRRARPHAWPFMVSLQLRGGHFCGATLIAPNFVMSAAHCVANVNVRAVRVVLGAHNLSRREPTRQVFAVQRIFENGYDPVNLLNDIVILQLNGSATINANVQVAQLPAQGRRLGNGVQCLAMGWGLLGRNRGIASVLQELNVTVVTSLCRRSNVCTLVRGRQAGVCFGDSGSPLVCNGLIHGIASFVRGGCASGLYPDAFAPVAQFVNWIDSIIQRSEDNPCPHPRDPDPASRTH
Sigmar1: Sigma non-opioid intracellular receptor 1 (Sigmar1, Rattus norvegicus, UniProt Q9R0C9)
Sequence of UniProt Q9R0C9 (whole entry, looked up): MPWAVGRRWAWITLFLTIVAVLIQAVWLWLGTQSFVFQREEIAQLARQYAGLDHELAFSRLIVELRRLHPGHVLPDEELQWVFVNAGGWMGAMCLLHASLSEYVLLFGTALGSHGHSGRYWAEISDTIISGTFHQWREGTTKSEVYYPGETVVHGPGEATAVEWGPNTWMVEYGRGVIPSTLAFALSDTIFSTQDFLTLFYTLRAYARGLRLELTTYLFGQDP
AKR1C2: Aldo-keto reductase family 1 member C2 (AKR1C2, Homo sapiens, UniProt P52895)
Sequence of UniProt P52895 (whole entry, looked up): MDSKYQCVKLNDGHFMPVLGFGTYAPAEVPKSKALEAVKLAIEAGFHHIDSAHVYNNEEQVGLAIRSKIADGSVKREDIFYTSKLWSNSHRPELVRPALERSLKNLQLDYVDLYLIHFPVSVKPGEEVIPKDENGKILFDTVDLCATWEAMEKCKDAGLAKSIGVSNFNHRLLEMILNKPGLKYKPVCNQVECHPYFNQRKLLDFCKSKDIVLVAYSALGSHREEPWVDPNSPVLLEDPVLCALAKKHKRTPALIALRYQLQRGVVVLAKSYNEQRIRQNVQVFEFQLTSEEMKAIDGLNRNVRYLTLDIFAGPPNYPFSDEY
uidA: Beta-glucuronidase (uidA, Escherichia coli, UniProt P05804)
Sequence of UniProt P05804 (whole entry, looked up): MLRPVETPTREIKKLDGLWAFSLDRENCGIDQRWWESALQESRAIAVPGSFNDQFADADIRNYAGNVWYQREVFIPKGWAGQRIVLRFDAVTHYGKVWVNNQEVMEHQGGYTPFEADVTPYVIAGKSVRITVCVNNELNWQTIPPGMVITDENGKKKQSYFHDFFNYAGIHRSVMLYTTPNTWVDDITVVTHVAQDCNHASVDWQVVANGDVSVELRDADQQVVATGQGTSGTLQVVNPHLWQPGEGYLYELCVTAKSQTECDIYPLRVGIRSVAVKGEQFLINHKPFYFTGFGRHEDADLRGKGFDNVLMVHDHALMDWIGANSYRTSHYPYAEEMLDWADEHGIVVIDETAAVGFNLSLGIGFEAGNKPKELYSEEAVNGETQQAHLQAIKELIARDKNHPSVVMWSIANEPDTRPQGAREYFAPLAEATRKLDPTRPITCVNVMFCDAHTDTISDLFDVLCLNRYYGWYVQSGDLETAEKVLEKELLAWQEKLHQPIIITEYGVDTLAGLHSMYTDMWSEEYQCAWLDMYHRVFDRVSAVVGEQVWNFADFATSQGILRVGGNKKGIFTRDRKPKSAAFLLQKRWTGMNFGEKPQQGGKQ
Ectonucleoside triphosphate diphosphohydrolase 8: Ectonucleoside triphosphate diphosphohydrolase 8 (Homo sapiens, UniProt Q5MY95)
Sequence of UniProt Q5MY95 (whole entry, looked up): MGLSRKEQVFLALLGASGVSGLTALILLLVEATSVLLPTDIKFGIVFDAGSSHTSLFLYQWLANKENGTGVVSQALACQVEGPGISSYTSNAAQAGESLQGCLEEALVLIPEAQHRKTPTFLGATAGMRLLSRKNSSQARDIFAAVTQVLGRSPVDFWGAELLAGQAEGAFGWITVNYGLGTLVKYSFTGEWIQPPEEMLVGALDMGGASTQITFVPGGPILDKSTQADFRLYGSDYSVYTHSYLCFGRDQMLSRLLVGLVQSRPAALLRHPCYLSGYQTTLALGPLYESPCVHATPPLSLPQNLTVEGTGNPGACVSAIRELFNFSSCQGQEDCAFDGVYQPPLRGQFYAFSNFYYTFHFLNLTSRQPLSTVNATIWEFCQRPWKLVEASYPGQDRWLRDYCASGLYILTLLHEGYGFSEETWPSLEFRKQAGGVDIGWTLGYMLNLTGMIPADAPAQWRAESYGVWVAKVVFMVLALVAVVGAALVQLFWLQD
PNLIP: Pancreatic triacylglycerol lipase (PNLIP, Sus scrofa, UniProt P00591)
Sequence of UniProt P00591 (whole entry, looked up): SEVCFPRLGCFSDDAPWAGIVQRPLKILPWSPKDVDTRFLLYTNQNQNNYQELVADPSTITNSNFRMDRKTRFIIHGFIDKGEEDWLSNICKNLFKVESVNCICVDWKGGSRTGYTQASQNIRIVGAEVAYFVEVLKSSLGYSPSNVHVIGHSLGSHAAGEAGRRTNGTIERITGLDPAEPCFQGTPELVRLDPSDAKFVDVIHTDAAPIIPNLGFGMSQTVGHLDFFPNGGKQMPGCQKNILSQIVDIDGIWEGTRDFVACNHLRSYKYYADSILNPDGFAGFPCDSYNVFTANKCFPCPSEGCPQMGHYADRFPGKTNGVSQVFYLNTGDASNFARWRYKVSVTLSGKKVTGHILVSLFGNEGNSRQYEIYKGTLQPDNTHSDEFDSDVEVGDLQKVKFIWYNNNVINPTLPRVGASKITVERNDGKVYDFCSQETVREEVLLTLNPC
CDK4 with cyclin D3: Cyclin-dependent kinase 4, with cyclin D3 (CDK4, Homo sapiens, UniProt P11802)
Sequence of UniProt P11802 (whole entry, looked up): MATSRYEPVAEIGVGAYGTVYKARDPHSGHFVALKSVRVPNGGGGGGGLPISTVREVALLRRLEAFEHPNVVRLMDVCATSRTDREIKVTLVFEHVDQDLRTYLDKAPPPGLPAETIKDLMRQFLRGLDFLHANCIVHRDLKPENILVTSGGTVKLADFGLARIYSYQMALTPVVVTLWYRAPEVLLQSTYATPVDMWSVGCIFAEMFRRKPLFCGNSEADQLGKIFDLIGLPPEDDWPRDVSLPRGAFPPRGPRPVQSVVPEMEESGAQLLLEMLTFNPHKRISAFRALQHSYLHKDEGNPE
Sequence of UniProt O75355 (whole entry, looked up): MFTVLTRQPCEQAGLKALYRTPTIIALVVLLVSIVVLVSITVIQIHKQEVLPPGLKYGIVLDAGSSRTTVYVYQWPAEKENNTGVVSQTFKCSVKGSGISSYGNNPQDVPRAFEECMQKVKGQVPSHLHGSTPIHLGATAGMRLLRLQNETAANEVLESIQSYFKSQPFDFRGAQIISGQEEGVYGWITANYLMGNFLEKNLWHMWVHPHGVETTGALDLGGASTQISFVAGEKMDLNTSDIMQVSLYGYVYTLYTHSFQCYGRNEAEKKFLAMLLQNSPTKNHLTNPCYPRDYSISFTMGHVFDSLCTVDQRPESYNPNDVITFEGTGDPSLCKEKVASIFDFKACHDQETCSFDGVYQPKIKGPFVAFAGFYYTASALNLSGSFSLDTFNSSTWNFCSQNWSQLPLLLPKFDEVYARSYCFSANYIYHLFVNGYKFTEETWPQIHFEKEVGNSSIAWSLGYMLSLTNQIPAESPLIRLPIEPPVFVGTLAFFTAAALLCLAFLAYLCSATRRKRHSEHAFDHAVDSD
Sequence of UniProt P00921 (whole entry, looked up): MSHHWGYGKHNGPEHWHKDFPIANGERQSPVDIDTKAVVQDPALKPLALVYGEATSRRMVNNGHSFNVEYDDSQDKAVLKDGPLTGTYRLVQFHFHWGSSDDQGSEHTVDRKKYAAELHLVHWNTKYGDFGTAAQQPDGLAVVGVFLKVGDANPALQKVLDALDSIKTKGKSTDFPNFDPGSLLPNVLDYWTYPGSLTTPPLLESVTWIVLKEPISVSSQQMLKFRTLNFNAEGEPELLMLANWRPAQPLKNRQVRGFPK
Sequence of UniProt Q9NZQ7 (whole entry, looked up): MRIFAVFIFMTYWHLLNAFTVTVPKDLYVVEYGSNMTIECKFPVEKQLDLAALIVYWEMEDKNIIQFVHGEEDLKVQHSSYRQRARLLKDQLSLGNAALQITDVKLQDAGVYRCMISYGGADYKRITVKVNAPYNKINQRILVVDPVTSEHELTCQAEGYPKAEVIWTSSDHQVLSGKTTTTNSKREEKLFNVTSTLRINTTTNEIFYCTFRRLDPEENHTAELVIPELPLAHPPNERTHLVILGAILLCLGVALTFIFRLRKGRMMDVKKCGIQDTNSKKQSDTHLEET

N#Cc1c(NC(=O)CN2CCOCC2)sc2c1CCC(c1ccccc1)C2 (centres unmarked) has an inhibition of 21.4% (PDK1; enzyme activity, inhibitor, ATP luminescence; 100 µg/mL).
For O=C(/C=C/c1ccc2ccccc2c1)NO, the inhibition was 64% (hdac10; 1 µM).
The inhibition of O=[N+]([O-])c1ccc2c(c1)S(=O)(=O)C=C2 is reported as roughly 75% (STAT3 (Homo sapiens, UniProt P40763); IL6-induced phosphorylation; HepG2; 10 µM, added: IL6).
With CN(C(=O)CCc1nc(CN2CCN(C(=O)c3ccc(Br)o3)CC2)no1)C1CCCCC1 the inhibition was 2 ± 2% (SCN9A (Homo sapiens, UniProt Q15858); sodium current, whole-cell patch clamp; HEK293, stable; 20 µM).
COc1ccc(C(=O)NO)cc1OCc1ccccc1 has an inhibition of less than 10% (hdac10; 1 µM).
The inhibition of COc1cc(/C=N\C(=S)NNC(=O)CC2C(=O)c3ccccc3C2=O)cc(OC)c1OC is reported as 17.3% (ELANE; enzyme activity, inhibitor, fluorescence; 1 µM).
The inhibition of COc1cc(C(=O)NC2CCC(N3CCN(CC4CCC5(CCCC5)C4)CC3)CC2)c(F)cc1Nc1ncc2c(n1)N(C1CCCC1(F)F)CC(F)(F)C(=O)N2C (centres unmarked) is reported as 3.48% (DDR2 (Homo sapiens, UniProt Q16832); cell-free assay, TR-FRET; 10 µM).
CC[C@H](C)[C@H](NC(=O)CNC(=O)[C@H](CCCCNC(C)=O)NC(=O)[C@H](Cc1ccc(O)cc1)NC(=O)[C@H](C)NC(=O)[C@H](CC(C)C)NC(=O)[C@H](CCC(N)=O)NC(=O)[C@H](Cc1ccc(O)cc1)NC(=O)[C@H](CC(C)C)NC(=O)[C@H](CCC(=O)O)NC(=O)[C@H](CCSC)NC(=O)[C@H](Cc1c[nH]c2ccccc12)NC(=O)[C@@H](NC(=O)[C@H](CC(C)C)NC(=O)[C@H](CCCCNC(=O)CCc1cn(CCOCCOCCOCCOCCOCCOCCOCCOCCNC(=O)CCC(=O)NCc2ccc(CN3C(=O)[C@H]4CC(=O)N[C@@H](CCCNC(=N)N)C(=O)NCC(=O)N[C@@H](CC(=O)O)C(=O)NC[C@H]3C(=O)N4)cc2)nn1)NC(C)=O)[C@@H](C)O)C(N)=O has an inhibition of 57 ± 10% (Vascular endothelial growth factor receptor 1, extracellular domain D1–D7 (FLT1, Homo sapiens, UniProt P17948); VEGF165 binding, solid-phase competition binding; 500 µM, added: biotinylated VEGF165).
C/C(=N\OCCN1CCCC1)c1ccccc1C(F)(F)F gave an inhibition of 85.8% (Sigmar1; radioligand binding; 10 µM).
The inhibition of C[C@@]12CC[C@@H]3c4cc(I)c(O)c(I)c4CC[C@H]3[C@@H]1CCC2=O is reported as 45% (AKR1C2; enzyme activity, inhibitor, absorbance; 100 µM, pH 9).
The inhibition of FC(F)(F)c1ccc(NC(=S)Nc2ccc3[nH]cnc3c2)cc1 is reported as 94.3% (uidA; enzyme activity, inhibitor, absorbance; 100 µM).
With Fc1ccccc1-n1c(-c2ccccc2)cs/c1=N/N=C/c1ccc(N2CCOCC2)cc1 the inhibition was 78.4% (CA2 (Bos taurus, UniProt P00921); enzyme activity, inhibitor, absorbance; 500 µM).
With CCc1nc2ccccc2n1S(=O)(=O)c1ccc2c(c1)C(=O)CC2=O the inhibition was 70.1% (ELANE; enzyme activity, inhibitor, fluorescence; 100 µM).
For COc1cc(O)c2c(=O)cc(-c3ccccc3)oc2c1, the inhibition was 32 ± 1.07% (α-glucosidase (Saccharomyces cerevisiae); inhibitor; 10 µg/mL, added: pNPG).
With O=C(c1ccc(Oc2ccc(Cl)cc2)c([N+](=O)[O-])c1)C(Cl)Cl the inhibition was 50.3% (PDK1; enzyme activity, inhibitor, ATP luminescence; 1 µM).
The inhibition of O=C(O)c1ccc2cccnc2c1O is reported as 100% (1-deoxy-D-xylulose 5-phosphate reductoisomerase (Escherichia coli K-12, UniProt P45568); enzyme activity, inhibitor, absorbance; 100 µM).
With C/C(=N\OCCN1CCCCC1)c1cccc(C(F)(F)F)c1 the inhibition was 104% (Sigmar1; radioligand binding; 10 µM).
The inhibition of O=C(c1ccc(OCCO)c([N+](=O)[O-])c1)C(Cl)Cl is reported as 33.2 to 39.1% (PDK1; enzyme activity, inhibitor, ATP luminescence; 10 µM).
O=C(O)c1cccc(S(=O)(=O)N2CCOCC2)c1 has an inhibition of 9% (Ectonucleoside triphosphate diphosphohydrolase 8; enzyme activity, inhibitor, absorbance; 100 µM).
For COc1cc2c(Nc3ccc(NC(=O)c4ccccc4)cc3)ncnc2cc1OCCCN1CCOCC1, inhibition read “no inhibition” (BUB1B (Homo sapiens, UniProt O60566); kinase activity, immunoprecipitate kinase; HeLa, mitotic; concentration not given).
For C/C(=N\OCCCCN(C)Cc1ccccc1)c1ccc(C(F)(F)F)cc1, the inhibition was 76.6% (Sigmar1; radioligand binding; 10 µM).
For O=C(Nc1ccc(Cl)cc1)c1cccc(S(=O)(=O)Nc2ccc(Cl)cc2)c1, the inhibition was 22% (Ectonucleoside triphosphate diphosphohydrolase 3 (Homo sapiens, UniProt O75355); enzyme activity, inhibitor, absorbance; 100 µM).
O=C(NO)c1cc2c(Cl)cccc2s1 has an inhibition of 11% (hdac10; 0.1 µM).
The inhibition of C/C(=N\OCCN1CCOCC1)c1ccccc1C(F)(F)F is reported as 94.8% (Sigmar1; radioligand binding; 10 µM).
For NCC(O)(C(=O)O)c1ccc(NCc2cnc3nc(N)nc(N)c3n2)cc1 (centres unmarked), the inhibition was 35 ± 13% (Dihydrofolate synthase/folylpolyglutamate synthase (Escherichia coli, UniProt P08192); enzyme activity, PK/LDH-coupled; 56 µM).
For C[C@@]12CC[C@@H]3c4ccc(O)cc4CC[C@H]3[C@@H]1CCC2=O, the inhibition was 3.5% (AKR1C2; enzyme activity, inhibitor, absorbance; 10 µM, pH 9).
COc1ccc(-c2nc(C(=O)NCc3ccc(C)cc3)c(O)c3ncccc23)c(OC)c1 has an inhibition of 69 ± 1.6% (Tripartite terminase subunit 3, C-terminal nuclease domain (Human betaherpesvirus 5, UniProt P16732); endonuclease activity, ELISA; 10 µM).
The inhibition of COc1ccc2c(c1Cl)CC[C@@H]1[C@@H]2CC[C@@]2(C)C(=O)CC[C@@H]12 is reported as 78.8% (AKR1C2; enzyme activity, inhibitor, absorbance; 100 µM, pH 9).
With O=C(O[C@@H]1Cc2c(O)cc(O)cc2O[C@@H]1c1ccc(O)c(O)c1)c1ccc(O)cc1 the inhibition was 55.8% (PNLIP; enzyme activity, inhibitor; 10 µM).
With O=C(/C=C/c1ccc2c(c1)OCCO2)c1ccc(Br)s1 the inhibition was 83.8% (MAOB (Homo sapiens, UniProt P27338); enzyme activity, inhibitor, fluorescence; 1 µM).
For C[C@]12CCC[C@H]1[C@@H]1CCc3c(cc(I)c(O)c3I)[C@H]1CC2, the inhibition was 11.7% (AKR1C2; enzyme activity, inhibitor, absorbance; 100 µM, pH 9).
COc1ccc(NC(=S)Nc2ccc3[nH]cnc3c2)cc1 gave an inhibition of 63.8% (uidA; enzyme activity, inhibitor, absorbance; 100 µM).
The inhibition of COc1cccc(Nc2ncnc3[nH]c4cc(Br)ccc4c23)c1 is reported as 26.5% (PTK6 (Homo sapiens, UniProt Q13882); enzyme activity, inhibitor, ADP detection; 2 µM).
For O=C(NO)c1coc(-c2ccc(Br)cc2)n1, the inhibition was 33% (hdac10; 0.1 µM).
CC(C)(O)C1=CCC(C2CC[C@]3(C)C2CCC2[C@@]4(C)CCC(O)C(C)(C)C4CC[C@]23C)C1=O (some centres unmarked) gave an inhibition of 26.7 ± 4.13% (α-glucosidase (yeast); 50 µM, added: PNPG substrate).
COc1ccc(-c2cc(=O)oc3cc(OCC(=O)c4ccc(-c5ccccc5)cc4)ccc23)cc1 has an inhibition of no less than 20% (Programmed cell death 1 ligand 1, with PD-1 (CD274, Homo sapiens, UniProt Q9NZQ7); PD-1/PD-L1 binding, inhibitor, TR-FRET; 25 µM).
Under inhibition, CC(=O)Nc1cc(COc2c(Cl)cc(CC(N)C(=O)O)cc2Cl)c2oc(-c3ccccc3)nc2c1 (centres unmarked) is recorded as “no inhibition” (Large neutral amino acids transporter small subunit 3 (Homo sapiens, UniProt O75387); leucine uptake; Xenopus oocytes; 1 and 10 µM, 30 min, added: L-[14C]leucine 50 µM).
COc1ccc(C(=O)NO)cc1NC(=O)c1cccc(-c2ccccc2)c1 gave an inhibition of less than 10% (hdac10; 1 µM).
C/C(=N\OCCN1CCCCC1)c1ccc(C(F)(F)F)cc1 gave an inhibition of 53.9% (Sigmar1; radioligand binding; 10 µM).
With O=C(CCCCCCN1CCN(c2ccc(Nc3ncc(F)c(-c4cn(C5CCCC5)nn4)n3)cc2)CC1)NO the inhibition was 96.6% (CDK4 with cyclin D3; enzyme activity, inhibitor, TR-FRET; 5 µM).
The inhibition of O=C(NO)c1coc(-c2cccs2)n1 is reported as 37% (hdac10; 1 µM).
With COc1ccc2c(c1)CC[C@@H]1[C@@H]2CC[C@]2(C)C(=O)CC[C@@H]12 the inhibition was 4.8% (AKR1C2; enzyme activity, inhibitor, absorbance; 10 µM, pH 9).
N#Cc1c(Cl)ccc(Oc2ccc(Cl)cc2Cl)c1O has an inhibition of 95% (ENR (Toxoplasma gondii, UniProt Q6UCJ9); enzyme activity, inhibitor; 1 µM).
With O=C(O)c1cc(S(=O)(=O)Nc2ccc(Br)cc2)ccc1Cl the inhibition was 25% (Ectonucleoside triphosphate diphosphohydrolase 8; enzyme activity, inhibitor, absorbance; 100 µM).
C[C@]12CC[C@@H]3c4cc(I)c(O)cc4CC[C@H]3[C@@H]1CCC2=O gave an inhibition of 52.5% (AKR1C2; enzyme activity, inhibitor, absorbance; 100 µM, pH 9).
The inhibition of CC(C)=CC1CC(C)(O)C2C3CCC4C5(C)CCC(OC6OCC(O)C(OC7OC(CO)C(O)C(O)C7O)C6OC6OC(C)C(O)C(O)C6O)C(C)(C)C5CCC4(C)C34COC2(C4)O1 (centres unmarked) is reported as 75% (PNLIP; enzyme activity, inhibitor, absorbance; 250 µM).
With O=C(O[C@@H]1Cc2c(O)cc(O)cc2O[C@@H]1c1ccc(O)c(O)c1)c1cc(O)c(O)c(O)c1 the inhibition was 91.8% (PNLIP; enzyme activity, inhibitor; 10 µM).
The inhibition of O=C(NO)c1coc(-c2ccccc2)n1 is reported as 45% (hdac10; 1 µM).
The inhibition of O=C(c1ccc(F)cc1)C1CCN(CCCCn2c(=O)[nH]c3ccccc32)CC1 is reported as roughly 75% (HTR7 (Homo sapiens, UniProt P34969); cAMP production; HEK293 expressing h5-HT7R; concentration not given).
With O=C(/C=C/c1ccccc1Cl)NO the inhibition was 73% (hdac10; 1 µM).
With Cc1cccc(/C=C/C(=O)c2cnn(-c3ccccc3)c2C)c1 the inhibition was 27.7% (AMY2 (Sus scrofa, UniProt P00690); enzyme activity, inhibitor, absorbance; 140 µM).
The inhibition of C/C(=N\OCCCN1CCCCC1)c1cccc(C(F)(F)F)c1 is reported as 97.3% (Sigmar1; radioligand binding; 10 µM).
For O=C(CCCCCCOc1ccc(Nc2ncc(F)c(-c3cn(C4CCCCC4)nn3)n2)cc1)NO, the inhibition was 17% (CDK4 with cyclin D3; enzyme activity, inhibitor, TR-FRET; 5 µM).

Some of these lines once more:
With O=C(O)c1cc(S(=O)(=O)Nc2ccc(Br)cc2)ccc1Cl the inhibition was 25% (Ectonucleoside triphosphate diphosphohydrolase 8; enzyme activity, inhibitor, absorbance; 100 µM).
C[C@]12CC[C@@H]3c4cc(I)c(O)cc4CC[C@H]3[C@@H]1CCC2=O gave an inhibition of 52.5% (AKR1C2; enzyme activity, inhibitor, absorbance; 100 µM, pH 9).
The inhibition of CC(C)=CC1CC(C)(O)C2C3CCC4C5(C)CCC(OC6OCC(O)C(OC7OC(CO)C(O)C(O)C7O)C6OC6OC(C)C(O)C(O)C6O)C(C)(C)C5CCC4(C)C34COC2(C4)O1 (centres unmarked) is reported as 75% (PNLIP; enzyme activity, inhibitor, absorbance; 250 µM).
With O=C(O[C@@H]1Cc2c(O)cc(O)cc2O[C@@H]1c1ccc(O)c(O)c1)c1cc(O)c(O)c(O)c1 the inhibition was 91.8% (PNLIP; enzyme activity, inhibitor; 10 µM).
The inhibition of O=C(NO)c1coc(-c2ccccc2)n1 is reported as 45% (hdac10; 1 µM).
